# Published values collected from several papers.
# Parts stem from different laboratories: compare values within a part only.
# Sequence of UniProt Q8IWQ3 (whole entry, looked up): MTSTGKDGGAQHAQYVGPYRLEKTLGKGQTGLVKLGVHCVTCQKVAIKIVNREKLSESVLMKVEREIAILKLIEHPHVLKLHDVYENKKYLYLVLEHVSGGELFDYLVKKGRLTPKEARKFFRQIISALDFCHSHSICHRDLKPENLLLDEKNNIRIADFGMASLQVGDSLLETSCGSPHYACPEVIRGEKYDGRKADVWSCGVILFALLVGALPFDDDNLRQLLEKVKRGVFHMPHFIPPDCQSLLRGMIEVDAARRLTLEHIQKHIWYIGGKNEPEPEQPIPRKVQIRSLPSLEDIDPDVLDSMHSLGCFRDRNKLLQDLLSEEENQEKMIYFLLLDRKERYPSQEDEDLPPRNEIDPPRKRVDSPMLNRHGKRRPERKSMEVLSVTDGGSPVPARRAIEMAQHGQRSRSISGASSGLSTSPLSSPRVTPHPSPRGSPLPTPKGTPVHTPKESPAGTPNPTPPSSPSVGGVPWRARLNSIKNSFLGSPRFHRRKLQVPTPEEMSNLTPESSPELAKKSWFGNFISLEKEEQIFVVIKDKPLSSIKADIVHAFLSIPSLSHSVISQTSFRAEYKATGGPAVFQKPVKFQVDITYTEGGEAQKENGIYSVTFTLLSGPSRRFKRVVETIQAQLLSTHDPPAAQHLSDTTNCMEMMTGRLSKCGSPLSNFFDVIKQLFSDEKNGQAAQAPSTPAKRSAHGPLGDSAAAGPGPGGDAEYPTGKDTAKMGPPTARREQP
# Sequence of UniProt Q8IU85 (whole entry, looked up): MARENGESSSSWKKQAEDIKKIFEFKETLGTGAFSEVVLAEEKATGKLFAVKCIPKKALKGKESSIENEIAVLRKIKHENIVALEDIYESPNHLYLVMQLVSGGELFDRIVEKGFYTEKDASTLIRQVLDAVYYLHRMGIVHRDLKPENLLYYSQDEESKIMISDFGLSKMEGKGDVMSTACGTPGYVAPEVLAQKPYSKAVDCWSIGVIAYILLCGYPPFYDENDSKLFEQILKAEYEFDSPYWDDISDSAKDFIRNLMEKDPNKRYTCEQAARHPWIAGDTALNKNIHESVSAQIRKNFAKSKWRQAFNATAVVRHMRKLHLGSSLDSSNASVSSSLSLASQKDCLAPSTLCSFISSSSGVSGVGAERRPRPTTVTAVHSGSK
# Sequence of UniProt Q13131 (whole entry, looked up): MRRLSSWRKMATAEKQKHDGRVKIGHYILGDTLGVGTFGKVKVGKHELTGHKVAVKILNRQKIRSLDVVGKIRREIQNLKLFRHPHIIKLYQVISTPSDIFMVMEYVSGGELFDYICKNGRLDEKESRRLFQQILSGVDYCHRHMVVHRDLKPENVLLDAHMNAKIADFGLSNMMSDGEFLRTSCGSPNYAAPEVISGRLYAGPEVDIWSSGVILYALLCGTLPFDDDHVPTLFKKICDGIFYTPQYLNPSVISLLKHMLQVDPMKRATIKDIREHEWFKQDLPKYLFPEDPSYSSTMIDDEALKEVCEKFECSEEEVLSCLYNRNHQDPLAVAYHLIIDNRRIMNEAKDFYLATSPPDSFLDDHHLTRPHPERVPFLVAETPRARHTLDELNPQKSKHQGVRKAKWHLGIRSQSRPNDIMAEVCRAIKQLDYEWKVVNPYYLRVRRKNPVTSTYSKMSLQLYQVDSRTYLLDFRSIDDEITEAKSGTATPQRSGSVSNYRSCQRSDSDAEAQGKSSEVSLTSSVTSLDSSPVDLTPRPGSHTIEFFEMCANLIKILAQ
# Sequence of UniProt P68400 (whole entry, looked up): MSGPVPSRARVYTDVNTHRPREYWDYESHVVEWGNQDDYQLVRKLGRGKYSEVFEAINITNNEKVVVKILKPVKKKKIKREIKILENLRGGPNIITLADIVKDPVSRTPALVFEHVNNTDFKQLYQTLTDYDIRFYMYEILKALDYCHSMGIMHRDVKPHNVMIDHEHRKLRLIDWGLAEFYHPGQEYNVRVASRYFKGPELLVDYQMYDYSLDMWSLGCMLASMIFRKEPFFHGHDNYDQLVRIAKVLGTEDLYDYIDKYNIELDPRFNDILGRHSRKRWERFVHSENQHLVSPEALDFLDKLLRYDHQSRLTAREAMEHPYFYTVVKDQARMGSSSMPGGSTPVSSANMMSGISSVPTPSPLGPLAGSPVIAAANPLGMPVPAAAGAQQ
# Sequence of UniProt Q15569 (whole entry, looked up): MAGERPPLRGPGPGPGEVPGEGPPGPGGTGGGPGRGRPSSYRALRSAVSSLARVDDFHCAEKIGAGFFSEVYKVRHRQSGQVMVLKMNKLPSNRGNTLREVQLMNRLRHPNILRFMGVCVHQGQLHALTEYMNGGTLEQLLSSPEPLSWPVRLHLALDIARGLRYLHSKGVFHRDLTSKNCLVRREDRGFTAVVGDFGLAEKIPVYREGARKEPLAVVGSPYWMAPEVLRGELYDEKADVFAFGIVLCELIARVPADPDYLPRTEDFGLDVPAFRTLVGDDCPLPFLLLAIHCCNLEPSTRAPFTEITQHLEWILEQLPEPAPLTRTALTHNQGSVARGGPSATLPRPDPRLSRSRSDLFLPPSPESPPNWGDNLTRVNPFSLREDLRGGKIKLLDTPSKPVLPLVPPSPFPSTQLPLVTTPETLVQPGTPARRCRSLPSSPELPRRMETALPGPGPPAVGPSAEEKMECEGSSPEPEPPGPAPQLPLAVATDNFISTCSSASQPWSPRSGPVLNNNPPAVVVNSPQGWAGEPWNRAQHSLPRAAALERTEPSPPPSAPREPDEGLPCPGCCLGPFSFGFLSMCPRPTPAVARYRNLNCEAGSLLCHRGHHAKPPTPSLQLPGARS
# Sequence of UniProt Q9H2G2 (whole entry, looked up): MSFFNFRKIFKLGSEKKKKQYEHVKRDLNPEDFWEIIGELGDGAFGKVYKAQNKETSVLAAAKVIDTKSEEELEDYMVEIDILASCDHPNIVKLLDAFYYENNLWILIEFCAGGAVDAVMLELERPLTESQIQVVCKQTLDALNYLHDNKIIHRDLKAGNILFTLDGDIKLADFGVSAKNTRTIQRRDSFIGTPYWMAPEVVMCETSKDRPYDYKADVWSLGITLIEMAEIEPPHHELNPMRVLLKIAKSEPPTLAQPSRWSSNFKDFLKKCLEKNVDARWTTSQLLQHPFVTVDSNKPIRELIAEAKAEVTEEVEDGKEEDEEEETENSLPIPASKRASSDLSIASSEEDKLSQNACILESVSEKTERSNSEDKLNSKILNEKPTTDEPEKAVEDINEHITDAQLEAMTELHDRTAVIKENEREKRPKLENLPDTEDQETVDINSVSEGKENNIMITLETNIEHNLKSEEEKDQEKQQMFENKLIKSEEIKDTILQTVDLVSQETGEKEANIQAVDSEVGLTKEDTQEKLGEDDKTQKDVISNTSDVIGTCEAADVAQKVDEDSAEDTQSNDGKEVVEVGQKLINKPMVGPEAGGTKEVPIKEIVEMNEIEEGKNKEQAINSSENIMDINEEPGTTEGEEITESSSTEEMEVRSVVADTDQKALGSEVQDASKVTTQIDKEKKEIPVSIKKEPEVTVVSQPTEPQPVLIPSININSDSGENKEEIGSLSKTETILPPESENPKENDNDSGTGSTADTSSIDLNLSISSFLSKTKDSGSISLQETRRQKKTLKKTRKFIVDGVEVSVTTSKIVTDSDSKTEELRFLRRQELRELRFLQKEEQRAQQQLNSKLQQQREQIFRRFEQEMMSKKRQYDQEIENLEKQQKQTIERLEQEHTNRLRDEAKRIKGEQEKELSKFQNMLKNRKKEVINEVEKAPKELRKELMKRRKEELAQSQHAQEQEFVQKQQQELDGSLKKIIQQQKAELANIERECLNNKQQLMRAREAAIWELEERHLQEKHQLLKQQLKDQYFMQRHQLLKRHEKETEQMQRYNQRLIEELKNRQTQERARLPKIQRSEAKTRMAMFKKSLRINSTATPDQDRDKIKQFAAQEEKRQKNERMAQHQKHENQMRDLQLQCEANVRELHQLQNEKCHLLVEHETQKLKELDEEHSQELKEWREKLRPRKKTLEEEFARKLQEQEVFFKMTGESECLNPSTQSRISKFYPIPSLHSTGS
# Sequence of UniProt Q9H3Y6 (whole entry, looked up): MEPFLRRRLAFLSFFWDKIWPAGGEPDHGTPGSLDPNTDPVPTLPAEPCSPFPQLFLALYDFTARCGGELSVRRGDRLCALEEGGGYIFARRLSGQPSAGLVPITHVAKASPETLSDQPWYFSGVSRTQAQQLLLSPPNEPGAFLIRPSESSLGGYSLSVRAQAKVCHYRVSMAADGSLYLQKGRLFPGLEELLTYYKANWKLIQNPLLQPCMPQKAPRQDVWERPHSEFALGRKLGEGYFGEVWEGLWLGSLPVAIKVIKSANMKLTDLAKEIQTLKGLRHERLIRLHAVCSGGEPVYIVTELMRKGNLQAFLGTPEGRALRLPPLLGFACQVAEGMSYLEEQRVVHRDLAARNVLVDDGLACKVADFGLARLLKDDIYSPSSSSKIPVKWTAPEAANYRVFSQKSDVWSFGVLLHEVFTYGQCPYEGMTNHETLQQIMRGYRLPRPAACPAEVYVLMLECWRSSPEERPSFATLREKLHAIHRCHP

# Study 1
# Organism: Sarcocystis neurona
# Read-out: parasite growth
# Tested at: 10 µM
# Time: 96 h
# Notes: second screen
# Baseline: untreated
SMILES,log2 fold change
O=c1c(O[C@@H]2O[C@H](CO)[C@@H](O)[C@H](O)[C@H]2O)c(-c2ccc(O)c(O)c2)oc2cc(O)cc(O)c12,0.16
C[C@]12CCC(=O)C=C1CC[C@@H]1[C@@H]2[C@@H](O)C[C@@]2(C)[C@H]1CC[C@]2(O)C(=O)CO,0.2
COCCOC(=O)C1=C(C)NC(C)=C(C(=O)OC(C)C)C1c1cccc([N+](=O)[O-])c1 (stereo not drawn),0.39
C[C@H]1c2cccc(O)c2C(=O)C2=C(O)[C@]3(O)C(=O)C(C(N)=O)=C(O)[C@@H](N(C)C)[C@@H]3[C@@H](O)[C@@H]21,-0.06
COCCCOc1ccnc(C[S+]([O-])c2nc3ccccc3[nH]2)c1C (stereo not drawn),0.62
Nc1ccn([C@@H]2O[C@H](CO)[C@@H](O)[C@@H]2O)c(=O)n1,0.69
CCC1(c2ccccc2)C(=O)NCNC1=O,0.36
C[C@@H](c1ncncc1F)[C@](O)(Cn1cncn1)c1ccc(F)cc1F,0.31

# Study 2
# Compound: Cc1noc([C@H]2C[C@@H](c3ccc(C(F)(F)F)cc3)CN(C(=O)N3CCS(=O)(=O)C3)C2)n1
# Read-out: cell-free assay
# Technique: competition with immobilised ligand
# Tested at: 1 µM
target,remaining binding [%]
"KIT (Homo sapiens, UniProt P10721, V559D)",100
"TESK1 (Homo sapiens, UniProt Q15569)",91
"RAF1 (Homo sapiens, UniProt P04049)",100
"SLK (Homo sapiens, UniProt Q9H2G2)",98
"BRSK2 (Homo sapiens, UniProt Q8IWQ3)",100
"PRKAA1 (Homo sapiens, UniProt Q13131)",100

# Study 3
# Compound: CC#CC(=O)N1CCC[C@H]1c1nc(-c2ccc(C(=O)Nc3ccccn3)cc2)c2c(N)nccn12
# Read-out: enzyme activity
# Mode: inhibitor
# Tested at: 1 µM
target,inhibition [%]
"PLK2 (Homo sapiens, UniProt Q9NYY3)",0
"CAMK1D (Homo sapiens, UniProt Q8IU85)",20
"SRMS (Homo sapiens, UniProt Q9H3Y6)",64
"MAP2K3 (Homo sapiens, UniProt P46734)",4
"DCLK3 (Homo sapiens, UniProt Q9C098)",4
"CSNK2A1 (Homo sapiens, UniProt P68400)",10
"BRSK2 (Homo sapiens, UniProt Q8IWQ3)",20
"YES1 (Homo sapiens, UniProt P07947)",41

# Study 4
# Target: Tyrosine-protein kinase ITK/TSK (ITK, Homo sapiens, UniProt Q08881)
# Sequence of UniProt Q08881 (whole entry, looked up): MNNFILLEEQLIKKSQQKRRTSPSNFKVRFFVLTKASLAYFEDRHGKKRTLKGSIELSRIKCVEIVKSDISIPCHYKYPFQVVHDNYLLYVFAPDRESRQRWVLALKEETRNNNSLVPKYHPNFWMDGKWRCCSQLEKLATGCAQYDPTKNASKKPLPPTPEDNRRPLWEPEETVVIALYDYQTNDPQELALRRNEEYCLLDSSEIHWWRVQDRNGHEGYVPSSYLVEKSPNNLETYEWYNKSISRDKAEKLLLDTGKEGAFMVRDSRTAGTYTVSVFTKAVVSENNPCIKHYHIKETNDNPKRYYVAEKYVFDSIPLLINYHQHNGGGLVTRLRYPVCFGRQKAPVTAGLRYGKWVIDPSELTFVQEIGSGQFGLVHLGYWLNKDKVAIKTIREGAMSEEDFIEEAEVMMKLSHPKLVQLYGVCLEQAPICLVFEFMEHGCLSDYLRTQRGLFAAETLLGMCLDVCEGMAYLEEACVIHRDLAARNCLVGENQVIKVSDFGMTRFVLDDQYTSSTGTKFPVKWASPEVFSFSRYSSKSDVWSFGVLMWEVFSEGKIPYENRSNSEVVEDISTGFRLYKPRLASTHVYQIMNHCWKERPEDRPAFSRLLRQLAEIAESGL
# Read-out: enzyme activity
# Mode: inhibitor
# Tested at: 0.5 µM
# Baseline: control
SMILES,remaining activity [%]
N#CC(C#N)=C(N)/C(C#N)=C/c1ccc(O)cc1,98.7
COc1ccc(CNC(=O)Nc2ncc([N+](=O)[O-])s2)cc1,89.5
Cn1sc(=O)n(Cc2ccccc2)c1=O,93.2
COc1cc2ncnc(Nc3ccc(Oc4ccccc4)cc3)c2cc1OC,93.6
C#Cc1cccc(Nc2ncnc3cc(OCCOC)c(OCCOC)cc23)c1,106
O=C(CCCc1ccc(-c2ccccc2F)cc1)Nc1ccc(O)cc1,85
O=C1NC(=O)C(c2cn(CCCO)c3ncccc23)=C1c1cnccn1,84.7
Cn1c2ccccc2c2c3c(c4c5ccccc5n(CCC#N)c4c21)CNC3=O,4.32
O=C(O)c1ccc2c3c1cccc3c(=O)n1c3ccccc3nc21,97.7
OCC(O)CCON=C1C(c2c(O)[nH]c3ccccc23)=Nc2ccccc21 (stereo not drawn),34.8
Nc1[nH]nc2nc3ccccc3nc12,101
COc1cc2ncnc(Nc3ccc(F)c(Cl)c3)c2cc1OCCCN1CCOCC1,99.9
O=C(Nc1cccc(Nc2cc(Nc3cccc(C(F)(F)F)c3)ncn2)c1)C1CC1,97.2
Oc1ccc(-c2nc(-c3ccncc3)c(-c3ccc(F)cc3)[nH]2)cc1,90.9

# Some of these lines once more (study 1):
SMILES,log2 fold change
O=c1c(O[C@@H]2O[C@H](CO)[C@@H](O)[C@H](O)[C@H]2O)c(-c2ccc(O)c(O)c2)oc2cc(O)cc(O)c12,0.16
C[C@]12CCC(=O)C=C1CC[C@@H]1[C@@H]2[C@@H](O)C[C@@]2(C)[C@H]1CC[C@]2(O)C(=O)CO,0.2
COCCOC(=O)C1=C(C)NC(C)=C(C(=O)OC(C)C)C1c1cccc([N+](=O)[O-])c1 (stereo not drawn),0.39
